Measurements pooled from the literature.
Parts stem from different laboratories: compare values within a part only. Positions count from the first letter of the parent shown.

Sample 1 — method: RNA Bind-n-Seq; form: RNA; medium: in vitro; concentration: not given; setting: RNA with constant flanks, ends assumed; baseline: input RNA pool; direction: higher = stronger binding; quantity: bound/input enrichment
Target: RING finger protein unkempt homolog, zinc fingers 1-6, GST-SBP tag (UNK, Homo sapiens, UniProt Q9C0B0, residues 30-357)
Chain of UniProt Q9C0B0 (30-357, looked up): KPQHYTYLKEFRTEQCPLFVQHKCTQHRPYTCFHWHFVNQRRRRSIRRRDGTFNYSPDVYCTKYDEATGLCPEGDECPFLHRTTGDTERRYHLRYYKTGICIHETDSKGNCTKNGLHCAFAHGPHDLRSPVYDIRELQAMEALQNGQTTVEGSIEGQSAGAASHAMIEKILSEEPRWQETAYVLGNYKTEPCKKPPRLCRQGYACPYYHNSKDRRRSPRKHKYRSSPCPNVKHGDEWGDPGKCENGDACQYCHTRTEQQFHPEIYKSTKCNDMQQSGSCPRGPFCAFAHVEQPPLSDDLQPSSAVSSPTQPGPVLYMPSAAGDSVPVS
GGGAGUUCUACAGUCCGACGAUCAAAAGCCGGGGAGGCUUUUUUAAUUCAUUUGAAUGUAUGAUUCUCGGACACUCCUUUUGACUCCGGGAUUUGCUUGAAUGCAUAAAGUCAAGAAGCAGAUAGGCUGGCAGGUUUCCAGGCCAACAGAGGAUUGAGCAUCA: 0.276 ratio
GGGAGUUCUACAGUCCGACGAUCAGAAAAUUGUGCUACUGUGUGUGCGUGUGCGUGCGUGUGUGUAGUGCUAGGAGUCCACAGCCGGUCUCUGUCAAGCCGAUGUCGUGAUGAGGGCUUUUCUGAUACUGACCCAGAAGCCACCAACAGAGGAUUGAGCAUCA: 0.143 ratio
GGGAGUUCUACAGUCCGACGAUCCGGCUAUUUGGUGAAGUCACCAGGCCUACUAAUUCCAAGUCUAUGAAAGUGGUGAAACUGUUCCGUGAACUGCCCUUGGCCAAGAAGAAGGAGACUUAUGAUUGGUAUCCAAAUCACCACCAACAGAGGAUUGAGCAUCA: 0.132 ratio
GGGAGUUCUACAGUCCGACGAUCAUGAACUUGAGGUUCCUUGAAUUUGCGAGGUGUGGAAAGACUACUUGACUGUCUGUCCAGCUCCGCUGUUAUGUUUUUUGGGGGGGAGGGGUGAUGUGUUAAGAGUGAGUGGUACACUGGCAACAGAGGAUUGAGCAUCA: 0.444 ratio
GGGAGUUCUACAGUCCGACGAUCAUGGAGGAGAACCAGCUAAAGAGCGAAAUGCAAGACGCCAAGGACCAGAACGAGCUGUCCGAAUUCAGAGUGCUAGAACUCGAAGUAAGAGACUCUAUCUGUUGUAAGCUCUCAAACGGACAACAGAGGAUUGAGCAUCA: 0.117 ratio
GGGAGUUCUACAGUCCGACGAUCCAGGGACUCUGGUGCCAAAUCCAGAAAGAUCUGCUCUGCUGCCCUGAACUCUUACGGCAAUUCCGGUUUCUCAUUUUUCUUUUCUUUUUACAUAUGUACAAAUUGUUUUAAGCUUUGGCCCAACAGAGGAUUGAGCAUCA: 0.508 ratio
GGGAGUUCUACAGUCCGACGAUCGACCAAACCCAGAACUUUUUUUUUUUUUUUUUUGGUUUUUCAAGACAAGAUUUCUCUGUGCCGCUCUGGCUGUCCUGGAACCCACUGUGUAUAUGACUAGGCUGAACUCCAACUCAGAGACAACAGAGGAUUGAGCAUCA: 1.32 ratio
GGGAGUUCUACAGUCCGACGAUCAACUCUAGAGCUCCCCCAAGACUGACUGUAGUGUCCCCUAACCGAGCUACUUCAACGGAAACCCGCUCAUCUGUAGAGACUGAUUUGCAACCCUUCCGGGAAGCCAUAGCUCUGCAUGGUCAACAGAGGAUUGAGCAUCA: 0.629 ratio

Sample 2 — method: universal PBM; form: double-stranded DNA, one strand shown; medium: in vitro; concentration: 600 nM; direction: higher = stronger binding; quantity: E-score
Target: Sal-like protein 4, full length isoform A (SALL4, Homo sapiens, UniProt Q9UJQ4, residues 1-1053)
Chain of UniProt Q9UJQ4 (whole entry, looked up): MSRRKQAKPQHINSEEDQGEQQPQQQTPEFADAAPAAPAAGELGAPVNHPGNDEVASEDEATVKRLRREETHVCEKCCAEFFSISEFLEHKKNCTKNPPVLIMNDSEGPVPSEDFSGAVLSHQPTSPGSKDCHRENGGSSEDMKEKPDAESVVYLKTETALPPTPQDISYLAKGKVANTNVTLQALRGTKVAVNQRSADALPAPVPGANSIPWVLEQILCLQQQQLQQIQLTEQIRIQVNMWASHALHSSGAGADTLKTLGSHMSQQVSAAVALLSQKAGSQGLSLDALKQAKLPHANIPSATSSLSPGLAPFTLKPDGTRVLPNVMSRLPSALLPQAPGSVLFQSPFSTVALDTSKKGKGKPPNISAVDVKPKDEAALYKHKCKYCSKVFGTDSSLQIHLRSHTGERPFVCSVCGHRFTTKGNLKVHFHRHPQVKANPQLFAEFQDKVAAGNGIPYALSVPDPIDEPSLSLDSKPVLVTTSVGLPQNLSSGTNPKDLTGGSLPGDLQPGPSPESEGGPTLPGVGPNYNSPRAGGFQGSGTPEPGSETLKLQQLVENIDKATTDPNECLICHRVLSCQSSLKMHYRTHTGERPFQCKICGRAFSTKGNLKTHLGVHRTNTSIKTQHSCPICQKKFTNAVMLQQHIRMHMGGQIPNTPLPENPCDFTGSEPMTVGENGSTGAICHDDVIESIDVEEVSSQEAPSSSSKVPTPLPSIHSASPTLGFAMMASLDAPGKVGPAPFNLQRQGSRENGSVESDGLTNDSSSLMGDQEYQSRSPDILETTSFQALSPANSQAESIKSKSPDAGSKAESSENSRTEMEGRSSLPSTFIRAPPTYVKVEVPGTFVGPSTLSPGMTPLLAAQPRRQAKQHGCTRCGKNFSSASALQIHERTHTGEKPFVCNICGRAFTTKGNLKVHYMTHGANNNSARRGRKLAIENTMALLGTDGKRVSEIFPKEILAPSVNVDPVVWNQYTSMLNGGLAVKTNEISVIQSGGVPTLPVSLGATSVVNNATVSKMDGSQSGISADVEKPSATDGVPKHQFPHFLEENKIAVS
Setting: 8-mer, flanks averaged, mean of replicates
ATACCCTG: -0.0807
AAGTAGGC: -0.0394
ACCTGGGA: -0.0351
AACTACGC: 0.0172
AATGATAT: 0.364
ATCTTCGA: 0.163
TATGGAAA: 0.323
AATTGCCA: 0.203
AGTGCACC: -0.0748
CCGACTTC: -0.396
GATTGAGA: 0.193

Sample 3 — target: CCNB1, cyclin fold, Cln2 fusion (human); method: yeast growth competition, sequencing; medium: yeast; setting: weak parent motif; baseline: not given; direction: higher = stronger binding; quantity: normalised enrichment score
Starting sequence: WEE1 docking peptide (human); HKTFRKLRLFDTP
L7E: 0.29
F4W: 1.18
T3M: 0.423
P13L: 0.0098
F10Q: -0.181
P13V: 0.574
L7C: 1.53
R8G: 0.22
H1N: 0.56

Mixed results
PhoQ, residues 284 288 289 292 302 303 SLGVVW  fold induction (PhoP, residues 12 14 15 18 19 STHWV (Escherichia coli, UniProt P23836); Sort-seq, measured: YFP reporter; E. coli; PhoQ-PhoP variant library, added: 10 µM Mg2+; baseline: high Mg2+ state, higher = stronger signaling): 23.4

A few entries again (sample 1):
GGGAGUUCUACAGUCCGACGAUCAAAAGCCGGGGAGGCUUUUUUAAUUCAUUUGAAUGUAUGAUUCUCGGACACUCCUUUUGACUCCGGGAUUUGCUUGAAUGCAUAAAGUCAAGAAGCAGAUAGGCUGGCAGGUUUCCAGGCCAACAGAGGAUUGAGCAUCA: 0.276 ratio
